Experimental data collected from several papers.
Values after ≈ are worked out from the molar mass of the structure shown.
UniProt Q15370, sequence (whole entry, looked up): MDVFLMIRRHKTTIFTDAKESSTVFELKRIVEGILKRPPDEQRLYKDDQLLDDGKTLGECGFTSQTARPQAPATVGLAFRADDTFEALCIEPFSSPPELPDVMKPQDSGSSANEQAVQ

Compound	target or system	test	system	setting	scale	measurement	value
CC[C@H](C)[C@@H]1NC(=O)[C@@H]2CCCN2C(=O)[C@H](CC(C)C)NC(=O)[C@H](CC(C)C)NC(=O)CNC(=O)[C@@H](NC(=O)[C@@H](NC(=O)[C@H](CC(=O)O)NC(=O)CNC(=O)[C@@H](NC(=O)[C@H](C)NC(=O)CNC(=O)[C@H](CCCCN)NC(=O)[C@H](CC(C)C)NC(=O)[C@H](CC(C)C)NC(=O)[C@H](CCCCN)NC(=O)CNC(=O)[C@@H](NC(=O)[C@@H](N)CC(C)C)C(C)C)C(C)C)C(C)C)CSSC[C@@H](C(=O)O)NC1=O	–	RNA-seq, refers to: Ttc14	mouse, traumatic brain injury model, frontal cortex and hippocampus	dose not given	relative to: TBI alone	log2 fold change	0.579
CC(C)NC(=O)N1CC[C@@H](NC2=Nc3cc(F)ccc3N(CC(F)F)c3ccc(Cl)cc32)C1	murine hepatitis virus	viral replication, nanoluciferase reporter	DBT	1 µM	relative to: DMSO vehicle	inhibition	-32%
COc1c(CCC[P+](c2ccccc2)(c2ccccc2)c2ccccc2)cc2c(c1OC)OCO2.[I-]	DU-145	SRB	–	–	–	LC50	> -4 log M
COc1cc2c(Oc3ccc4[nH]c(C)cc4c3F)ccnc2cc1OCC1(N)CC1	–	–	paediatric refractory sarcoma patients	8 mg/kg	–	patients with grade 3 ALP elevation	0%
CC[C@H](C)[C@H](NC(=O)[C@H](C)NC(=O)[C@H](CCCCN)NC(=O)[C@H](CC(C)C)NC(=O)[C@H](C)NC(=O)[C@@H](NC(=O)[C@H](Cc1c[nH]cn1)NC(=O)[C@H](CC(C)C)NC(=O)[C@@H](NC(=O)[C@@H](NC(=O)[C@H](CCCCN)NC(=O)[C@H](C)NC(=O)[C@H](C)NC(=O)[C@H](CO)NC(=O)[C@H](CCCCN)NC(=O)[C@H](Cc1ccccc1)NC(=O)[C@@H](NC(=O)[C@H](CCCCN)NC(=O)[C@H](CC(C)C)NC(=O)[C@H](Cc1ccccc1)NC(=O)[C@H](CO)NC(=O)[C@H](CCCCN)NC(=O)[C@H](Cc1c[nH]c2ccccc12)NC(=O)[C@H](CCCCN)NC(C)=O)[C@@H](C)O)[C@@H](C)O)C(C)C)[C@@H](C)O)C(=O)N[C@@H](CO)C(=O)N[C@@H](CO)C(N)=O	Enterobacter cloacae	–	–	40 strains	–	MBC50	8 µg/mL (≈ 2.73 µM)
CCCCC1(CCCC)CN(c2ccccc2)c2cc(SC)c(OCC(=O)N[C@@H](C(=O)NCC(=O)O)c3ccccc3)cc2S(=O)(=O)C1	–	refers to: HDL cholesterol	human, serum	10 mg once daily, day 1	–	serum HDL-C	51.1 mg/dL
CS(=O)(=O)CCCn1c(Cn2c(=O)n(CC(F)(F)F)c3ccncc32)cc2cc(Cl)ccc21	respiratory syncytial virus	RT-qPCR	hospitalized infants 1-24 months, nasal swab	oral, 8 mg/kg daily, day 3, cohort 6-24 months	relative to: placebo	LS mean difference vs placebo	-1.23 log10 copies/mL
CC[C@H](C)[C@H](NC(=O)[C@H](Cc1ccccc1)NC(=O)[C@H](CCC(=O)O)NC(=O)[C@H](CCCNC(=N)N)NC(=O)[C@H](C)NC(=O)[C@H](C)NC(=O)[C@H](CCC(N)=O)NC(=O)[C@H](CCC(=O)O)NC(=O)[C@H](CCC(=O)O)NC(=O)[C@H](CC(C)C)NC(=O)[C@H](Cc1ccc(O)cc1)NC(=O)[C@H](CO)NC(=O)[C@H](CO)NC(=O)[C@@H](NC(=O)[C@H](CC(=O)O)NC(=O)[C@H](CO)NC(=O)[C@@H](NC(=O)[C@H](Cc1ccccc1)NC(=O)[C@@H](NC(=O)CNC(=O)[C@H](CCC(=O)O)NC(=O)[C@H](C)NC(=O)CCc1c[nH]cn1)[C@@H](C)O)[C@@H](C)O)C(C)C)C(=O)N[C@@H](C)C(=O)N[C@@H](Cc1c[nH]c2ccccc12)C(=O)N[C@@H](CC(C)C)C(=O)N[C@H](C(=O)N[C@@H](CCCNC(=N)N)C(=O)NCC(=O)N[C@@H](CCCNC(=N)N)C(=O)N[C@@H](CCCCNC(=O)COCCOCCNC(=O)COCCOCCNC(=O)CC[C@H](NC(=O)CCCCCCCCCCCCCCCCC(=O)O)C(=O)O)C(=O)NCC(=O)NCC(=O)N[C@@H](CO)C(=O)N[C@@H](CCCCNc1c(NCCCCCN(O)C(=O)CCC(=O)NCCCCCN(O)C(=O)CCC(=O)NCCCCCN(O)C(C)=O)c(=O)c1=O)C(=O)O)C(C)C [zirconium-89 labelled]	–	ex vivo gamma counting	rat, femur	subcutaneous, 3 nmol/kg, 4 h, added: [89Zr]-labelled peptide	–	tissue uptake	0.08 %ID/g
C[C@H](C(=O)N[C@H]1COc2ccccc2[C@@H]1S(C)(=O)=O)c1ccc(F)cc1	GABAA central, rat	binding	–	10 µM, Eurofins selectivity panel, added: flunitrazepam	–	inhibition	4%
O=C(NNc1ccc(F)c(F)c1)c1nnc(C23CC4CC(CC(C4)C2)C3)o1	Fusarium graminearum	fungal growth, inhibitor	–	50 µg/mL	–	inhibition	100%
C[C@]1(CO)Cc2ncn(-c3ccc(C#N)c(Cl)c3)c2C(=O)O1	–	–	human	0.7 mg single dose	–	subjects with severe TEAEs	0%
C[C@H]1CN(c2n[nH]c3nc(N[C@H]4CC[C@H](NS(=O)(=O)CCC(F)(F)F)CC4)ncc23)CCO1	Elongin-B (Homo sapiens, UniProt Q15370)	Kinobeads competition, refers to: TCEB2	–	0.8 µM, unit not given	relative to: vehicle	remaining binding	1.39
COc1cc(CCC[P+](c2ccccc2)(c2ccccc2)c2ccccc2)c(OC)c2c1OCO2.[I-]	M14	SRB	–	–	–	TGI	-4.86 log M
CO[C@H]1C[C@@H]2CC[C@@H](C)[C@@](O)(O2)C(=O)C(=O)N2CCCC[C@H]2C(=O)O[C@H]([C@H](C)C[C@@H]2CC[C@@H](OC(=O)NCCOCCOCCOCCOCCOCCOCCOCCOCCC(=O)N3CCc4cc(Cn5nc(-c6ccc7oc(N)nc7c6)c6c(N)ncnc65)ccc4C3)[C@H](OC)C2)C[C@@H](O)[C@H](C)/C=C(\C)[C@@H](O)[C@@H](OC)C(=O)[C@H](C)C[C@H](C)/C=C/C=C/C=C/1C	–	–	patients with advanced solid tumours	intravenous, 1.6 mg/3 mg weekly, any grade	–	incidence of any SAE	20%
CN1CCN(S(=O)(=O)c2cc([N+](=O)[O-])ccc2N(CCOS(C)(=O)=O)CCOS(C)(=O)=O)CC1	–	–	NSG mice, sample BH PDX	intraperitoneal, 25 mg/kg weekly x3	relative to: treated over vehicle	EFS ratio (T/C)	7.7

A few entries again:
Compound	target or system	test	system	setting	scale	measurement	value
CC[C@H](C)[C@@H]1NC(=O)[C@@H]2CCCN2C(=O)[C@H](CC(C)C)NC(=O)[C@H](CC(C)C)NC(=O)CNC(=O)[C@@H](NC(=O)[C@@H](NC(=O)[C@H](CC(=O)O)NC(=O)CNC(=O)[C@@H](NC(=O)[C@H](C)NC(=O)CNC(=O)[C@H](CCCCN)NC(=O)[C@H](CC(C)C)NC(=O)[C@H](CC(C)C)NC(=O)[C@H](CCCCN)NC(=O)CNC(=O)[C@@H](NC(=O)[C@@H](N)CC(C)C)C(C)C)C(C)C)C(C)C)CSSC[C@@H](C(=O)O)NC1=O	–	RNA-seq, refers to: Ttc14	mouse, traumatic brain injury model, frontal cortex and hippocampus	dose not given	relative to: TBI alone	log2 fold change	0.579
CC(C)NC(=O)N1CC[C@@H](NC2=Nc3cc(F)ccc3N(CC(F)F)c3ccc(Cl)cc32)C1	murine hepatitis virus	viral replication, nanoluciferase reporter	DBT	1 µM	relative to: DMSO vehicle	inhibition	-32%
